Measured values of several laboratories.
Parts stem from different laboratories: compare values within a part only. “And” joins repeats or separate records; there may be more than shown.
UniProt Q00532, sequence (whole entry, looked up): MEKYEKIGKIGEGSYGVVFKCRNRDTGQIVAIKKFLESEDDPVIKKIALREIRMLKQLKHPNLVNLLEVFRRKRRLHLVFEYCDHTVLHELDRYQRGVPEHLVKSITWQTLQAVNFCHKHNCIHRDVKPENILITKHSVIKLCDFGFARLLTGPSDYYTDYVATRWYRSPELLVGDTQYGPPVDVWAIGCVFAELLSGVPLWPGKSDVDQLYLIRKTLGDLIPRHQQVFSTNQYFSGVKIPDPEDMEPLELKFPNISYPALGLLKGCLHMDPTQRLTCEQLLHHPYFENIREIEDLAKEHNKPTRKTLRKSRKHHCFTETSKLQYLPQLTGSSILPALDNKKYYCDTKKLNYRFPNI
UniProt O00329, sequence (whole entry, looked up): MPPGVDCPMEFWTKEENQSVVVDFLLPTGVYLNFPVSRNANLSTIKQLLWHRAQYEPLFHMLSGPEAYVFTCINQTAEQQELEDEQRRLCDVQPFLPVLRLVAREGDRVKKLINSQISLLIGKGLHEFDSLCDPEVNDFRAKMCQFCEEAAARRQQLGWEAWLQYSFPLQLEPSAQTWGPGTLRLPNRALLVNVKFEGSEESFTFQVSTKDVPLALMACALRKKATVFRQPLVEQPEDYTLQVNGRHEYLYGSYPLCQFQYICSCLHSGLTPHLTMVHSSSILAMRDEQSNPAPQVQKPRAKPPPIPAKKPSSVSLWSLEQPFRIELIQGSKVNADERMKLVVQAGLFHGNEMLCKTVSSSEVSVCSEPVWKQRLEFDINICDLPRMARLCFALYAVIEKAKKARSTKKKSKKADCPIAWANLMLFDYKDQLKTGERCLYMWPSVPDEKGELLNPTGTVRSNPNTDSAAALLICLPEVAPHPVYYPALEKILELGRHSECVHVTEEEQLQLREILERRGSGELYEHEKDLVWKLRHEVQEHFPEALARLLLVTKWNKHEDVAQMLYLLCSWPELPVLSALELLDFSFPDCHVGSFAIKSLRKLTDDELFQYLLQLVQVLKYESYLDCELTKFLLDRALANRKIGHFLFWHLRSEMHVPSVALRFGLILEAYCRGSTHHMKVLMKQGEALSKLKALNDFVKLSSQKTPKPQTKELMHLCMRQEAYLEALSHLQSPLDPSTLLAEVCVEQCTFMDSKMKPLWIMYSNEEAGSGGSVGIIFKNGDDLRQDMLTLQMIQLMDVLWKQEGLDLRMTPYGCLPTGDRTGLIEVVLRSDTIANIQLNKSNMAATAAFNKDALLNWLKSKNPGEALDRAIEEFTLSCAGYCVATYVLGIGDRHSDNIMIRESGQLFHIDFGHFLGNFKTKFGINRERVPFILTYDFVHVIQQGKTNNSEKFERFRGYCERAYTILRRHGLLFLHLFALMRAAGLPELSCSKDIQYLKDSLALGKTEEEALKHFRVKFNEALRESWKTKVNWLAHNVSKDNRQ
UniProt P22455, sequence (whole entry, looked up): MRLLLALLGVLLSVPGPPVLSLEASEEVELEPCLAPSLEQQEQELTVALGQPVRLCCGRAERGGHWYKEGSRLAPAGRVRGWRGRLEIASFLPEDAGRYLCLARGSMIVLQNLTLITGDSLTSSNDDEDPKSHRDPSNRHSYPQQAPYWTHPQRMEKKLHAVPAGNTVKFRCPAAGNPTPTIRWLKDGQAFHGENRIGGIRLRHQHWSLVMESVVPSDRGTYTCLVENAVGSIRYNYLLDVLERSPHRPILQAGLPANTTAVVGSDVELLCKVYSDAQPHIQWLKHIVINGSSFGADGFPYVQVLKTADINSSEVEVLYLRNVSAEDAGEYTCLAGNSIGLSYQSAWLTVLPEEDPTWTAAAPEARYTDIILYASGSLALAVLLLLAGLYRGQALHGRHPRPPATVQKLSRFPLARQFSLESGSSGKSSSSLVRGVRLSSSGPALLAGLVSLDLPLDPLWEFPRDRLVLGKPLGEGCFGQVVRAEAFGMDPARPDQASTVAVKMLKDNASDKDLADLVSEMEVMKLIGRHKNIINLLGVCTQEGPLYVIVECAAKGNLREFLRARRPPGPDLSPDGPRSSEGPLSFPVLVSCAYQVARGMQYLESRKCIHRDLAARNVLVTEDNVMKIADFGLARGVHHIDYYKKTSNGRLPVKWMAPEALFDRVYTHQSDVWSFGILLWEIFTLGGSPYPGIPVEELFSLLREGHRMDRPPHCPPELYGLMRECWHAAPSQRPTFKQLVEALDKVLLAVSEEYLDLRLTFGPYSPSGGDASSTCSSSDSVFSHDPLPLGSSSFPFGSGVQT
UniProt Q99558, sequence (whole entry, looked up): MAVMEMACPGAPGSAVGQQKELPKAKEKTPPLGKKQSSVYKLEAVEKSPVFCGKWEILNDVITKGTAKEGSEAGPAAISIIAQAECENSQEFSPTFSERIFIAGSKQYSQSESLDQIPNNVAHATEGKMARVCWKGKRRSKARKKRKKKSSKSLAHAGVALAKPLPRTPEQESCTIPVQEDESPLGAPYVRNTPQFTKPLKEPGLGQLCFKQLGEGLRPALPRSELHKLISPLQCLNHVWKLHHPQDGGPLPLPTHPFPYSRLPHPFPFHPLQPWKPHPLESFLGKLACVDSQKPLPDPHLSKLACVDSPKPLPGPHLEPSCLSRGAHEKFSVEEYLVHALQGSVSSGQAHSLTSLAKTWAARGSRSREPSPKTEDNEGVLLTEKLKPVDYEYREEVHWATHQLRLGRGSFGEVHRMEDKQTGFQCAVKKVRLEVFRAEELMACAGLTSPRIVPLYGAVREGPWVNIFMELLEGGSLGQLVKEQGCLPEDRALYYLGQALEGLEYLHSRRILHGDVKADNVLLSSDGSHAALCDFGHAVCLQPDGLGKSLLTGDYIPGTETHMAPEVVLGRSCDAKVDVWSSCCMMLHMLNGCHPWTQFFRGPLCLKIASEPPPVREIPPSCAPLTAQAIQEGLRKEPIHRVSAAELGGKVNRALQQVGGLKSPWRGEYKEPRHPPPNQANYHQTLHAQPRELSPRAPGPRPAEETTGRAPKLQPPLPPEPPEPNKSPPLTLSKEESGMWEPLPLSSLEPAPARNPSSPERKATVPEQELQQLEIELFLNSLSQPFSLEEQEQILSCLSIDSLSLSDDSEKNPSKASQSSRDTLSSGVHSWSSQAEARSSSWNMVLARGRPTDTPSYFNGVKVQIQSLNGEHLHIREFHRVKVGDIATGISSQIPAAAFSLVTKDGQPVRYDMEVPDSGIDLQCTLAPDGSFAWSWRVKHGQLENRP
UniProt Q08345, sequence (whole entry, looked up): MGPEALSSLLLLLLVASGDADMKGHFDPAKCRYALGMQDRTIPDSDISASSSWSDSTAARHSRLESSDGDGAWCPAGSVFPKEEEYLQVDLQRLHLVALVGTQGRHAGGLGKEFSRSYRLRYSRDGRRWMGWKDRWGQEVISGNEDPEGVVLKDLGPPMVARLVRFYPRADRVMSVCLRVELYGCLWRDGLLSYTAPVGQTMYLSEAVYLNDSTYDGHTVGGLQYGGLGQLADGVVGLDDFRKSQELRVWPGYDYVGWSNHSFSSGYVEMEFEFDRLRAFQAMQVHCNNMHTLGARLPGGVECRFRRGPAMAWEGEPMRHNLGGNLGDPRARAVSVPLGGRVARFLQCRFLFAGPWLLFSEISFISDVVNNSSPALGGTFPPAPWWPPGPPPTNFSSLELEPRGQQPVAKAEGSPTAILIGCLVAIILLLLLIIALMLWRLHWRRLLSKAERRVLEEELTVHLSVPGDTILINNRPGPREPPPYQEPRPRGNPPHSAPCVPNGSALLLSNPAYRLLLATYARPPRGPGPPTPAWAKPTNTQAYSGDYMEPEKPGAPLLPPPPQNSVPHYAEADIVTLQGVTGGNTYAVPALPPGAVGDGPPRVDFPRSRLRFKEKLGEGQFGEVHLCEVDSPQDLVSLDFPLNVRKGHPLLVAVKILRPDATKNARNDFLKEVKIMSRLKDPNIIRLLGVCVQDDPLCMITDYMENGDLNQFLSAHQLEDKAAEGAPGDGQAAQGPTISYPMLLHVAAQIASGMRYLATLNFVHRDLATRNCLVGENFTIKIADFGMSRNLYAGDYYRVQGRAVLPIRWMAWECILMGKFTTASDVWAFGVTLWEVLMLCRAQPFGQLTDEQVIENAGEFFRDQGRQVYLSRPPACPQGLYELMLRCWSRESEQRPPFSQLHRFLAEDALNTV
UniProt P10721, sequence (whole entry, unmodified, looked up): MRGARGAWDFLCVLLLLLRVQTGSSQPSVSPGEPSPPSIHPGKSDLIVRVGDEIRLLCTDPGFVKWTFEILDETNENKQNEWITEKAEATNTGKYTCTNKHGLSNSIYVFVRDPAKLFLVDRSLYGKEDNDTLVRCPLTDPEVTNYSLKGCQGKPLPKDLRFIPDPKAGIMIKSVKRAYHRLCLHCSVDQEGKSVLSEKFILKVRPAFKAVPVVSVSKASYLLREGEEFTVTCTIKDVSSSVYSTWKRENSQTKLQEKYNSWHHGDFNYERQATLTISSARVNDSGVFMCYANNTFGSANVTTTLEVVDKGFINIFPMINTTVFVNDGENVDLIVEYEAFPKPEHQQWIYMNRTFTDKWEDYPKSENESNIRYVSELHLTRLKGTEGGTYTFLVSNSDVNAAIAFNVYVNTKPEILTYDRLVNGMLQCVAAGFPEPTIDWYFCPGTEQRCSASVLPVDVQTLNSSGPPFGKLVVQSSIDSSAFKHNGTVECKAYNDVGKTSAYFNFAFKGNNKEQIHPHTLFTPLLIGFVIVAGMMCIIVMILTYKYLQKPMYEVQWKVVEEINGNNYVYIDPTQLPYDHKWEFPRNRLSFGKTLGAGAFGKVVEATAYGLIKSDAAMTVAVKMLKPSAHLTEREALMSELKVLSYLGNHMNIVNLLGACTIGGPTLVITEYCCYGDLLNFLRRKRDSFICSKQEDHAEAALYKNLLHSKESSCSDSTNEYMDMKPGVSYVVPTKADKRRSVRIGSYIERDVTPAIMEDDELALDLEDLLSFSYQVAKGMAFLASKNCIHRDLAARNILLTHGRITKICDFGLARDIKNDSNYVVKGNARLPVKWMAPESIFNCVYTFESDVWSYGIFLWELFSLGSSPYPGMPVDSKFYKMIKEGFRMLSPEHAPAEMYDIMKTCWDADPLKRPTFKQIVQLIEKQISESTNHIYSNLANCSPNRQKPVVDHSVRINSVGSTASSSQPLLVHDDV

Block 1 — organism: Sarcocystis neurona; read-out: parasite growth; concentration: 10 µM; time: 96 h; setting: first screen
| SMILES | inhibition [%] |
| --- | --- |
| CC[C@H]1OC(=O)[C@H](C)[C@@H](O[C@H]2C[C@@](C)(OC)[C@@H](O)[C@H](C)O2)[C@H](C)[C@@H](O[C@@H]2O[C@H](C)C[C@H](N(C)C)[C@H]2O)[C@](C)(OC)C[C@@H](C)C(=O)[C@H](C)[C@@H](O)[C@]1(C)O | -0.9 |
| Clc1ccc(COC(Cn2ccnc2)c2ccc(Cl)cc2Cl)cc1 (stereo not shown) | -4.1 |
| CCOc1cc(CC(=O)N[C@@H](CC(C)C)c2ccccc2N2CCCCC2)ccc1C(=O)O | 35.1 |

Block 2 — read-out: probe labelling; sample: mouse brain lysate; concentration: 1 µM
Structure (SMILES): COc1cc(C(=O)N2CCC(N3CCN(C)CC3)CC2)ccc1Nc1ncc2c(n1)N(C)c1ccccc1C(=O)N2C
| target | mode | technique | setting | inhibition [%] |
| --- | --- | --- | --- | --- |
| mouse CaMK2γ | – | KiNativ ATP probe | LYS1 site TSTQEYAAkIINTK | 8.7 |
| RSKL1 domain 1 (mouse) | inhibitor | KiNativ ActivX ADP probe | – | -11.3 |
| ILK (mouse) | – | KiNativ ATP probe | LYS1 labelled site | 4.7 |

Block 3 — read-out: cell-free assay; technique: competition with immobilised ligand; concentration: 1 µM
Structure (SMILES): O=S(=O)(NC1CCC(c2cc(F)ccc2F)(S(=O)(=O)c2ccc(Cl)cc2)CC1)C(F)(F)F (stereo not shown)
| target | remaining binding |
| --- | --- |
| ROCK1 (Homo sapiens, UniProt Q13464) | 84% |
| TNIK (Homo sapiens, UniProt Q9UKE5) | 82% |
| Tyrosine-protein kinase ABL1, phosphorylated (ABL1, Homo sapiens, UniProt P00519, M351T) | 100% |
| CDKL1 (Homo sapiens, UniProt Q00532) | 100% |
| DDR1 (Homo sapiens, UniProt Q08345) | 100% |
| EGFR (Homo sapiens, UniProt P00533, L861Q) | 100% |
| PIK3CD (Homo sapiens, UniProt O00329) | 100% |
| ERBB3 (Homo sapiens, UniProt P21860) | 93% |
| KIT (Homo sapiens, UniProt P10721, D816V) | 92% |
| MAP3K14 (Homo sapiens, UniProt Q99558) | 82% |
| HIPK2 (Homo sapiens, UniProt Q9H2X6) | 81% |
| PKN1 (Homo sapiens, UniProt Q16512) | 100% |
| Tyrosine-protein kinase ABL1, phosphorylated (ABL1, Homo sapiens, UniProt P00519, Q252H) | 84% |
| FGFR4 (Homo sapiens, UniProt P22455) | 100% |
| STK3 (Homo sapiens, UniProt Q13188) | 100% |

Block 4 — technique: universal PBM; molecule type: double-stranded DNA, one strand shown; sample: in vitro; concentration: not given; reading: higher = stronger binding
Target: Sal-like protein 4, full length isoform B (SALL4, Homo sapiens, UniProt Q9UJQ4-2, residues 1-616)
Setting: 8-mer, flanks averaged, mean of replicates
Residues (chain): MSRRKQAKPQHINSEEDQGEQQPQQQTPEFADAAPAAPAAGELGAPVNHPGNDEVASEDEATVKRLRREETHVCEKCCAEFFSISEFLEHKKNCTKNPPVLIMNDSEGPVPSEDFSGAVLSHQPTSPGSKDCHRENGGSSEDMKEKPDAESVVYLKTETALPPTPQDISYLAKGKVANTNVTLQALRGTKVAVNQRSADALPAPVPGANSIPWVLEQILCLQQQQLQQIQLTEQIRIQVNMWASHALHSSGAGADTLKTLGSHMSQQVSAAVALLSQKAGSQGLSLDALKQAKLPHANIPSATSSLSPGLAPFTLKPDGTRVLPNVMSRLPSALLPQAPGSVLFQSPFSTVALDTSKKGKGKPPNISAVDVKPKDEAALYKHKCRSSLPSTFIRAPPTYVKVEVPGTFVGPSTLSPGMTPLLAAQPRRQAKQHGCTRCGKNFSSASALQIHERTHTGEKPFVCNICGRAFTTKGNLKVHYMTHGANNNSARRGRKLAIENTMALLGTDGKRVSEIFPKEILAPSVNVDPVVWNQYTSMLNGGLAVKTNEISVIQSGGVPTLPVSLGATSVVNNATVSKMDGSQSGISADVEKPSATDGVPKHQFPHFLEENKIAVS
| Strand | E-score |
| --- | --- |
| AAGATACG | 0.139 |
| AGGCGATG | -0.155 |
| AAGCATCT | 0.0717 |
| AATTTCTA | 0.312 |
| AGGGGAGA | -0.159 |
| CCCTAATC | -0.114 |
| GGGGGCAC | -0.194 |
| CATAACCC | 0.185 |

Further values, each from its own experiment
| Substance | target or system | test | system | conditions | scale | quantity | result |
| --- | --- | --- | --- | --- | --- | --- | --- |
| COc1ccc(-c2c(Nc3ccccn3)[nH]c3c(C4=CCCCC4)c(-c4ccccc4)nn3c2=O)cc1 | – | – | human, plasma | oral, 200 mg twice daily | – | dose-normalised AUC(0-tau) | 665 ng·h/mL/mg and 618 ng·h/mL/mg and 620 ng·h/mL/mg |
| CC(C)n1cc(S(=O)(=O)N2CC(C(=O)O)c3ccccc32)cn1 (stereo not shown) | – | – | mouse, microsomes or S9 | 2 µM, 0.5 h | – | remaining compound | 81.8% |
| CN(C(=O)c1ccn2ncc(-c3ccc(C(N)=O)cc3)c2c1)c1ccc(C#N)cn1 | Cryptosporidium parvum | time-kill | HCT-8, nanoluciferase-expressing | 0.7407 µM, 48 h | higher = more parasites | parasite luminescence | 27300 RLU and 24300 RLU |
| CC(C)n1cnc(-c2ccc(F)cc2)c1-c1ncc(C(=O)Nc2ccc(N3CCN(C)CC3)cc2)[nH]1 | – | phase 2a clinical trial | patients with idiopathic pulmonary fibrosis | 30 mg once daily | – | patients with Arthritis TEAE | 0% |
| NC(=O)OCC(COC(N)=O)c1ccccc1 | mouse MPNST tumor cells | high-content nuclear imaging, measured: cell number | – | 10 µM, 12 h, mean of 2 replicates | relative to: plate mean, higher = more cells | nuclei count | 0.686 z-score and -0.506 z-score and 0.622 z-score |
| CC(C)c1ccc(CNC(=O)CCCCNS(=O)(=O)c2ccccc2)cc1 | – | – | mouse, microsomes or S9 | 2 µM, 0.5 h | – | remaining compound | 4.54% |
| Cn1c(COc2cccc(C(F)(F)F)c2Cl)nnc1[C@H]1C[C@H](N)C1 | ADRB1 (Homo sapiens, UniProt P08588) | agonist | – | – | – | EC50 | ≥ 100 µM |
| ALDH1L1 (Homo sapiens, UniProt O75891) | RAN (Homo sapiens, UniProt P62826) | cross-linking MS | cells | together with: BSPNO | – | cross-linked residues | K469 to K38 |

Repeated from above (block 3):
| target | remaining binding |
| --- | --- |
| KIT (Homo sapiens, UniProt P10721, D816V) | 92% |
| STK3 (Homo sapiens, UniProt Q13188) | 100% |
